Assay results gathered from unrelated publications.
Compare with care: the assays were run in different laboratories. ± gives the spread as reported.
PTGER4: Prostaglandin E2 receptor EP4 subtype (PTGER4, Homo sapiens, UniProt P35408)
UniProt P35408, sequence (whole entry, looked up): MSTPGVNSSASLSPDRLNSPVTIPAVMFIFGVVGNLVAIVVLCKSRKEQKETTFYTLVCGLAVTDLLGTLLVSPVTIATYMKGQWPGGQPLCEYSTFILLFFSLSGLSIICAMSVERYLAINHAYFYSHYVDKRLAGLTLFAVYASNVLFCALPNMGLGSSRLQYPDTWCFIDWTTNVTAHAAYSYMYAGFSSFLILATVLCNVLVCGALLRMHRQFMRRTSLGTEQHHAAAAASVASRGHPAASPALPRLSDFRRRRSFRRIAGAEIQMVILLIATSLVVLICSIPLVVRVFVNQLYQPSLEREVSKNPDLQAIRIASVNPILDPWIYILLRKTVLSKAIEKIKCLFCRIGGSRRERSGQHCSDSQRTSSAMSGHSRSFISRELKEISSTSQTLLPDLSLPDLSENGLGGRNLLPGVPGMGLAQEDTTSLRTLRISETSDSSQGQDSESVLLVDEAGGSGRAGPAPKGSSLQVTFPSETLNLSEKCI
UniProt P06276, sequence (whole entry, looked up): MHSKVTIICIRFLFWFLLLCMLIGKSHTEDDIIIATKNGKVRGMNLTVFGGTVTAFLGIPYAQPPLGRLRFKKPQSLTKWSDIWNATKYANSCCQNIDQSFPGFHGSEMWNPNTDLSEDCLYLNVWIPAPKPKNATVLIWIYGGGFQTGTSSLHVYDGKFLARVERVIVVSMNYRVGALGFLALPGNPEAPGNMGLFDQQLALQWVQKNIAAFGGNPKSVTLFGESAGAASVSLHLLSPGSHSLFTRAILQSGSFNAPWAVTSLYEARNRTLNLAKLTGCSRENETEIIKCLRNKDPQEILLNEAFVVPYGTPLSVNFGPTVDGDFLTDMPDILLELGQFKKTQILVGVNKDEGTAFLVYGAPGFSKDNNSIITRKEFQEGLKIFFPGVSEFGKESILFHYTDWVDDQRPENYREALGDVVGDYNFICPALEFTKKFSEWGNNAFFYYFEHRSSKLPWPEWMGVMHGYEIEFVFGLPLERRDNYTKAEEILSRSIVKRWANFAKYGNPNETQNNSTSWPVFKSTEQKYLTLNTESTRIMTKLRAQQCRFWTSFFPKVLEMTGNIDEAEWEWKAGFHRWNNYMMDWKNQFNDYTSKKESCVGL
UniProt Q9UIA9, sequence (whole entry, looked up): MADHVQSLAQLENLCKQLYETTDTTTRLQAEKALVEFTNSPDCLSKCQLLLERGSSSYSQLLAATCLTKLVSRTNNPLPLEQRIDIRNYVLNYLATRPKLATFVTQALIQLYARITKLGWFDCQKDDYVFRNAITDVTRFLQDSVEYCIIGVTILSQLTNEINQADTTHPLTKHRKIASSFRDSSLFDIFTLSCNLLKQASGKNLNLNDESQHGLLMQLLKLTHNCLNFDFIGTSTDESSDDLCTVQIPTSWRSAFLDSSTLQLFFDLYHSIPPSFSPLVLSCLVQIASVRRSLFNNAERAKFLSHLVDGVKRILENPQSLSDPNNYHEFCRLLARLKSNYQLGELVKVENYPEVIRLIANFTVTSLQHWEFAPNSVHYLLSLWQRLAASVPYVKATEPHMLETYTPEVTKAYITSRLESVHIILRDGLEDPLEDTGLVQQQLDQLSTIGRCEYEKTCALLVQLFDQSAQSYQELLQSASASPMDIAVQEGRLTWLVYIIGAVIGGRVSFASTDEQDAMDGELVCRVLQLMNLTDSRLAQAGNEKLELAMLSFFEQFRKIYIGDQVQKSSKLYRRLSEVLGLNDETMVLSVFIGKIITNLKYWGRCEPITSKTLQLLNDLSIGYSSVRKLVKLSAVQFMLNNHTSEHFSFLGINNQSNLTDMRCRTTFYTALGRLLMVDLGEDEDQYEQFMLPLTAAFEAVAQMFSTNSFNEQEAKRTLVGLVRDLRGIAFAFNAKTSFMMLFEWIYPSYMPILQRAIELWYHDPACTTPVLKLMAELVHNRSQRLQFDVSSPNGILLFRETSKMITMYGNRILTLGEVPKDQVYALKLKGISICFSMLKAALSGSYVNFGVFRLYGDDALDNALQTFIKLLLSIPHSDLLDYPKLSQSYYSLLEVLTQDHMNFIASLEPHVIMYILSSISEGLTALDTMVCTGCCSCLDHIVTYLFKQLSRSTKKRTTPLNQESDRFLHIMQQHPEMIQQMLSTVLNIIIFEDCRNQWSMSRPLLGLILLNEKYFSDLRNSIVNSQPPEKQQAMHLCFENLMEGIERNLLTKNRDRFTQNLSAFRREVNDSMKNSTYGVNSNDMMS
UniProt P35462, sequence (whole entry, looked up): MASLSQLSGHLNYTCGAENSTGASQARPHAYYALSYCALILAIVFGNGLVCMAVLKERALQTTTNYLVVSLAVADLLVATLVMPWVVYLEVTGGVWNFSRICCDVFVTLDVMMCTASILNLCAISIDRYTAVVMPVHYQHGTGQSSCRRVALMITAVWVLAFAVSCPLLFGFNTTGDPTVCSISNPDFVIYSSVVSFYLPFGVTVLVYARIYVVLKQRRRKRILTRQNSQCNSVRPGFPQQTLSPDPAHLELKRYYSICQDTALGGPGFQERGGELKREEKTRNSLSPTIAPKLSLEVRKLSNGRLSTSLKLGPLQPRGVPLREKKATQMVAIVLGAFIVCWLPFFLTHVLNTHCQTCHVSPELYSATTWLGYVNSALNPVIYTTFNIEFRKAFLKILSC
UniProt P63138, sequence (whole entry, looked up): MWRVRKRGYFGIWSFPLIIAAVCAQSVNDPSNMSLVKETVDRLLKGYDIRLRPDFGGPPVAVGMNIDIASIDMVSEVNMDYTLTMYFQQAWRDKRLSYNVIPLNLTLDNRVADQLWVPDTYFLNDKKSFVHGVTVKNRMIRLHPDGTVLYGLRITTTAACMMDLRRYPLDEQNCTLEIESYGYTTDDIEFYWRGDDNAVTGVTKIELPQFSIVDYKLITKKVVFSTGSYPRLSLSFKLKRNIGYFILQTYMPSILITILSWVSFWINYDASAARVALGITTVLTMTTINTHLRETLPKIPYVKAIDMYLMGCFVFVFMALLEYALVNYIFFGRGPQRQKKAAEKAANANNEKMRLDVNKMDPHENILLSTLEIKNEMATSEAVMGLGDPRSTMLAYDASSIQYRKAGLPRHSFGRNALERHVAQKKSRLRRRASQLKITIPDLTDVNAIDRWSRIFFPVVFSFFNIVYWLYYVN
UniProt P38489, sequence (whole entry, looked up): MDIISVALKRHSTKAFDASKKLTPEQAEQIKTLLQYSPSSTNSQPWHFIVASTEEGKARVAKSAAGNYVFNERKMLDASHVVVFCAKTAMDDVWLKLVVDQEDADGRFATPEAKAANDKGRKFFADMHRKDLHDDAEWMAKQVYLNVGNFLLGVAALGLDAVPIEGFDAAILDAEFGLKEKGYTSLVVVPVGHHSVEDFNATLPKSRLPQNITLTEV
UniProt O00429, sequence (whole entry, looked up): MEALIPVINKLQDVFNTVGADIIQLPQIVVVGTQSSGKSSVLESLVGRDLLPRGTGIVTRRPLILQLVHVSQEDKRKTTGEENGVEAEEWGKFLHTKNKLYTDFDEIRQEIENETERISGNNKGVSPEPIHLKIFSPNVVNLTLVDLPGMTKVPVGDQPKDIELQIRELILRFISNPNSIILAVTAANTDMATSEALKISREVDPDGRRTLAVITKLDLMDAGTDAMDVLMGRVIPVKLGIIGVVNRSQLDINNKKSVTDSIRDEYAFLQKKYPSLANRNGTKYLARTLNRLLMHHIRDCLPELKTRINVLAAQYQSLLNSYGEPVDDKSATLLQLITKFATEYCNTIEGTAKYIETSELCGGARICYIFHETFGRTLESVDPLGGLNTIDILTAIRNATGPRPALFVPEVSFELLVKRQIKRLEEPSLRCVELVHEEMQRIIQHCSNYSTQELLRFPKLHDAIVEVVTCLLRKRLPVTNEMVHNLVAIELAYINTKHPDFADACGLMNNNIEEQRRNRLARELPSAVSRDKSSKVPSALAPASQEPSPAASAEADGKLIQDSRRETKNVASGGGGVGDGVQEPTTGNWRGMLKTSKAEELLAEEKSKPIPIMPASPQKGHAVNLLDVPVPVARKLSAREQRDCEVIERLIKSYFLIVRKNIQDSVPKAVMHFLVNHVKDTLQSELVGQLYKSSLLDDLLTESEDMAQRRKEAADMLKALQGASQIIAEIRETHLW
UniProt O70528, sequence (whole entry, looked up): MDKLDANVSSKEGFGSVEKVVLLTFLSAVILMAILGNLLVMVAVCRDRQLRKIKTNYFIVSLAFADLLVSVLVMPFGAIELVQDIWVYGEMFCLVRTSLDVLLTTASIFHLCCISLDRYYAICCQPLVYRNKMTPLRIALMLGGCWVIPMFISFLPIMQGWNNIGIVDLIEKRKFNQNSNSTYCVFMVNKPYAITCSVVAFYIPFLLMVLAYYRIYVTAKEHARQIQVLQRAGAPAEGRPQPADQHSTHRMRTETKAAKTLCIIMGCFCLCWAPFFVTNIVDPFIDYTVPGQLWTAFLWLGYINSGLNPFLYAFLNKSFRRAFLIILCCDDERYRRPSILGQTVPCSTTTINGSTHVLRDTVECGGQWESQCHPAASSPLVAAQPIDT
UniProt P32239, sequence (whole entry, looked up): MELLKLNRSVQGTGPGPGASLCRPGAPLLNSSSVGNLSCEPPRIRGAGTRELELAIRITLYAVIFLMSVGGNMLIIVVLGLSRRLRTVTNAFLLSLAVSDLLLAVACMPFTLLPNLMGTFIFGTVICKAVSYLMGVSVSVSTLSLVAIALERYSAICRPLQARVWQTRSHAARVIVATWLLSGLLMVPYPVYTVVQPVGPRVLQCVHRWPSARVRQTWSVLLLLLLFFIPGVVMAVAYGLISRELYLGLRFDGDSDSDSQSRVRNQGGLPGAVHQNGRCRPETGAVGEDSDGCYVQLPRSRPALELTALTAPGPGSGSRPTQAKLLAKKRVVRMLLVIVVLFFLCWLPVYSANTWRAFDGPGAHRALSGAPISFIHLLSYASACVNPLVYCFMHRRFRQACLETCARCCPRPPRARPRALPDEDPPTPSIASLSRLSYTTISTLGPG

Structure (SMILES) | target or system | assay | test system | setting | scale | endpoint | value
CCN(C)C(=O)Oc1ccc(CCC(=O)N2CCN(Cc3ccccc3)CC2)cc1OC | Cholinesterase (BCHE, Equus caballus, UniProt P81908) | Ellman | equine serum BuChE | – | baseline: AChE IC50 over BuChE IC50 | selectivity ratio | 1.1
Nc1nc2c(ncn2[C@@H]2O[C@H](COP(=O)(O)OP(=O)(O)OP(=O)(O)O)[C@@H](O)[C@H]2O)c(=O)[nH]1 | GTP 3',8-cyclase (moaA, Staphylococcus aureus, UniProt P69848, R17A) | isothermal titration calorimetry | – | concentration not given, 25 °C, R17A mutant, anaerobic | – | binding entropy ΔS | 16.3 cal/mol/K
CN(C(=O)n1cnc(-c2ccc[n+]([O-])c2)c1)C1CCCCC1 | Abhydrolase domain-containing protein 11 (Rattus norvegicus, UniProt D3ZXK4) | enzyme activity, ABPP | rat, brain | oral, 100 mg/kg/day, 28 days | baseline: vehicle | fold change | -5.7
C=CCNCC(=O)O | putA (Sinorhizobium meliloti, UniProt F7X6I3) | covalent inactivator | – | 23 °C | – | kinact/KI | 1.6 ± 0.2 M⁻¹ s⁻¹
O=C[C@H](O)COP(=O)(O)O | dxs (Pseudomonas aeruginosa, UniProt Q9KGU7, R482A) | substrate | – | – | – | Km | 2600 ± 400 µM
CCN(CC)CCNC(=O)c1cc(Br)c(N)cc1OC | Cholinesterase (BCHE, Homo sapiens, UniProt P06276) | – | – | concentration not given, Triton | – | efficacy | -98.6 ± 8.98%
CC[C@H](C)[C@H]1O[C@]2(C=C[C@@H]1C)C[C@@H]1C[C@@H](C/C=C(\C)[C@@H](O[C@H]3C[C@H](OC)[C@@H](O[C@H]4C[C@H](OC)[C@@H](O)[C@H](C)O4)[C@H](C)O3)[C@@H](C)/C=C/C=C3\CO[C@@H]4[C@H](O)C(C)=C[C@@H](C(=O)O1)[C@]34O)O2 | GABA-A receptor; alpha-1/beta-2/gamma-2 (Rattus norvegicus, UniProt P18508+P62813+P63138) | chloride current, agonist, whole-cell patch clamp | HEK293 expressing GABAA | 30 s | baseline: maximum | maximal response | 45%
Cc1cn([C@H]2C[C@H](O)[C@@H](COP(=O)(O)OP(=O)(O)OP(=O)(O)O)O2)c(=O)[nH]c1=O | Gag-Pol polyprotein, reverse transcriptase (gag-pol, Human immunodeficiency virus type 1 group M subtype B, UniProt P04585, K653T) | nucleotide misincorporation, steady-state kinetics | – | K66T RT, added: matched template/primer, template T | – | kcat | 0.191 ± 0.04 s⁻¹
CN(C(=O)n1cnc(-c2ccc[n+]([O-])c2)c1)C1CCCCC1 | PTGER4 | binding, refers to: EP4 | – | 10 µM, human, added: [3H]prostaglandin E2 | – | inhibition | 3%
CC(=O)c1cnc2ccc(-c3cc(Cl)c(O)c(Cl)c3)nc2c1N[C@H]1CC[C@H](CN(C)C)CC1 | Cholinesterase (BCHE, Homo sapiens, UniProt P06276) | – | – | concentration not given, Triton | – | efficacy | -49.3 ± 3.69%
COc1cc(Br)cc(Br)c1Oc1cc(Br)cc(Br)c1O | SULT1B1 (Homo sapiens, UniProt O43704) | sulfonation, substrate | – | – | – | apparent Vmax | 121 nmol/min/mg protein
O=C(c1ccc(Cl)cc1)N1CCN2C(=O)N(OC(=O)N3CCOc4ccccc43)C(=O)C2C1 (stereo not drawn) | Retinoid-inducible serine carboxypeptidase (SCPEP1, Homo sapiens, UniProt Q9HB40) | enzyme activity, inhibitor, MS-based ABPP | SW-620 in situ | 10 µM, 2 h, 37 °C | baseline: compound over DMSO, lower = stronger inhibition | median ratio | 1.07
O=C1c2ccncc2C(=O)c2c1[nH]c1ccccc21 | DNM1L (Homo sapiens, UniProt O00429) | inhibitor, recombinant protein | – | concentration not given | – | GTPase activity | inhibited
COc1ccc(N2C(=O)N(c3c(C)cccc3Cl)Cc3cnc(Nc4ccc(C5CCN(C)CC5)cc4OC)nc32)nc1 | SPHK1 (Homo sapiens, UniProt Q9NYA1) | kinase activity | – | 0.5 µM | – | inhibition | 2.33%
[2H]c1c([2H])c([C@]2([2H])CCCN2C(=O)C(C)(C)Oc2ccc3cn[nH]c3c2)c([2H])c([2H])c1C([2H])([2H])[2H] | LIM domain kinase 2 (LIMK2, Homo sapiens, UniProt P53671) | KINOMEscan | – | 1 µM | baseline: DMSO control | remaining binding | 86%
Cc1[nH]c(C)c(S(=O)(=O)Nc2ccc(S(F)(F)(F)(F)F)cc2)c1C(=O)N1CCC(F)(F)C1 | DRD3 (Homo sapiens, UniProt P35462) | binding | membranes | 100 µM, added: [3H]dopamine | – | Bmax increase | 64%
COc1cc(N)c(Cl)cc1C(=O)NC1CN2CCC1CC2 (stereo not drawn) | CMKLR2 (Homo sapiens, UniProt P46091) | β-arrestin recruitment, TANGO luminescence, refers to: GPR1 | – | concentration not given | baseline: basal luminescence | log2 fold change | 0.154
Nc1ncnc2c1ncn2[C@@H]1O[C@H](COP(=O)(O)OP(=O)(O)NP(=O)(O)O)[C@@H](O)[C@H]1O | Cell cycle histidine kinase CckA, cytoplasmic region (Caulobacter vibrioides, UniProt Q9X688) | ITC | – | added: c-di-GMP 100 µM | – | ΔS | 10.6 cal/mol/K
CC1(C(=O)O)C2CCC(O2)C1(C)C(=O)O (stereo not drawn) | Plasmodium falciparum | – | 3D7 | – | – | IC50 | 2000 nM
NCCCCC(c1ccccc1)(c1ccccc1)c1ccccc1 | KIF11 (Homo sapiens, UniProt P52732) | basal ATPase activity, inhibitor | – | – | – | ligand efficiency | 0.33
C[C@H]1CN(c2n[nH]c3nc(N[C@H]4CC[C@H](NS(=O)(=O)CCC(F)(F)F)CC4)ncc23)CCO1 | Exportin-7 (Homo sapiens, UniProt Q9UIA9) | Kinobeads competition, refers to: XPO7 | – | 0.8 µM, unit not given | baseline: vehicle | remaining binding | 1.13
OC(CN1CCC(Cc2ccc(F)cc2)CC1)c1ccc(Cl)cc1 (stereo not drawn) | Plasmodium falciparum | – | 3D7 | – | – | IC50 | 1580 nM
CC1(C)S[C@@H]2[C@H](/N=C/N3CCCCCC3)C(=O)N2[C@H]1C(=O)O | Penicillin-binding protein 1A (pbpA, Streptococcus pneumoniae, UniProt Q8DR59) | inhibitor | – | – | – | kinact/KI | 18 ± 0.5 M⁻¹ s⁻¹
O=C(Nc1cnccc1Cl)N1CCN(Cc2ccc3c(c2)OC(F)(F)O3)CC1 | PTGER4 | binding, refers to: EP4 | – | 50 µM, human, added: [3H]prostaglandin E2 | – | inhibition | 7%
CC(=O)N[C@@H](C)C(=O)N1CCC[C@H]1C(=O)N[C@@H](CC(C)C)C(=O)N[C@H](C(=O)N[C@@H](CCCNC(=N)N)C(=O)NCC(=O)N[C@@H](CO)C(=O)N[C@@H](CS)C(=O)N[C@@H](CCCNC(=N)N)C(=O)N[C@@H](CCCCN)C(=O)N[C@@H](CCCNC(=N)N)C(=O)N[C@@H](CC(N)=O)C(=O)N[C@@H](CCCNC(=N)N)C(=O)N[C@@H](CO)C(=O)N1CCC[C@H]1C(=O)N[C@@H](CCC(=O)O)C(=O)N[C@@H](CCCNC(=N)N)C(N)=O)[C@@H](C)O | WDR5 (Homo sapiens, UniProt P61964) | binding, isothermal titration calorimetry | – | pH 7.0, 20 °C | – | ΔG | -6.88 kcal/mol
Clc1cccc(-c2cccc(Cl)c2)c1 | Androgen receptor (AR, Homo sapiens, UniProt P10275) | reporter gene, antagonist | – | 40 µM, added: DHT 2 nM | baseline: DHT 2 nM | maximum activity | 14%
CN1CCN(c2cc(-c3ccncc3)c(-c3ccc4ccccc4c3)nn2)CC1 | CCKBR (Homo sapiens, UniProt P32239) | agonist, FLIPR | – | 12.5 µM | – | activation | 1.7%
COc1c(N2CC3CCCNC3C2)c(F)cc2c(=O)c(C(=O)OCc3cnc([N+](=O)[O-])s3)cn(C3CC3)c12.O=C(O)C(F)(F)F (stereo not drawn) | nfsB (Escherichia coli K-12, UniProt P38489) | substrate | – | added: NADH 100 µM | – | initial rate | 7.41 ± 0.98 µM/min
Cc1c(Cl)c(=O)oc2cc(OCCCC[Se]C#N)ccc12 | CA12 (Homo sapiens, UniProt O43570) | stopped-flow CO2 hydration | – | – | baseline: Ki CA I over Ki CA XII | selectivity ratio | > 1400
O=C(Nc1cccnn1)N1CCC(=Cc2cccc(Oc3ccc(C(F)(F)F)cn3)c2)CC1 | HTR4 (Cavia porcellus, UniProt O70528) | radioligand binding | – | 10 µM, added: [3H]GR-113808 | – | inhibition of binding | 4%

For quick reference, copied from above:
Structure (SMILES) | target or system | assay | test system | setting | scale | endpoint | value
CC(=O)N[C@@H](C)C(=O)N1CCC[C@H]1C(=O)N[C@@H](CC(C)C)C(=O)N[C@H](C(=O)N[C@@H](CCCNC(=N)N)C(=O)NCC(=O)N[C@@H](CO)C(=O)N[C@@H](CS)C(=O)N[C@@H](CCCNC(=N)N)C(=O)N[C@@H](CCCCN)C(=O)N[C@@H](CCCNC(=N)N)C(=O)N[C@@H](CC(N)=O)C(=O)N[C@@H](CCCNC(=N)N)C(=O)N[C@@H](CO)C(=O)N1CCC[C@H]1C(=O)N[C@@H](CCC(=O)O)C(=O)N[C@@H](CCCNC(=N)N)C(N)=O)[C@@H](C)O | WDR5 (Homo sapiens, UniProt P61964) | binding, isothermal titration calorimetry | – | pH 7.0, 20 °C | – | ΔG | -6.88 kcal/mol
O=C(Nc1cccnn1)N1CCC(=Cc2cccc(Oc3ccc(C(F)(F)F)cn3)c2)CC1 | HTR4 (Cavia porcellus, UniProt O70528) | radioligand binding | – | 10 µM, added: [3H]GR-113808 | – | inhibition of binding | 4%
